# Measured values pooled from the literature.
# Lines come from different studies, so protocols differ. “And” joins repeats or separate records; there may be more than shown. ± marks the error that the study gave.
Structure (SMILES),cell line,assay,system,setting,how to read,endpoint,value
O=C1CC[C@@]2(O)[C@H]3Cc4ccc(O)c5c4[C@@]2(CCN3CC2CC2)[C@H]1O5,rabbit epithelial cells,opioid peptide transport,,"250 µM, 15 min, NaCl medium",baseline: control,[3H]deltorphin II uptake,119%
CCN1CCN(Cc2ccc(NC(=O)c3ccc(C)c(-c4ccc5nc(NC(=O)C6CC6)cn5c4)c3)cc2C(F)(F)F)CC1,MHHCALL4 cells,"Western blot, item: JAK2, STAT5, STAT3",,concentration not given,,phosphorylation,inhibited
COc1cnc2cccc(N3CCc4c(cc(Cn5ccnc5C)cc4-c4cn(C)nc4C(F)(F)F)C3=O)c2c1,OV-90,"cell growth, inhibitor",,120 h,,EC50,> 30 µM
CC(C)C[C@H](NC(=O)[C@@H](NC(=O)c1cccc(-c2ccccc2)n1)[C@@H](C)O)B(O)O,BT-16,"cell viability, MTT",,"10 µM, 72 h",,inhibition,94.2%
Cc1c(N(C)C)ccc2cc(C(=O)NS(=O)(=O)c3ccccc3-c3ccccc3)oc12,ZR-75-1,,,concentration not given,,cell proliferation,no inhibition
CC(=O)Nc1cccc(-n2c(=O)n(C3CC3)c(=O)c3c(Nc4ccc(I)cc4F)n(C)c(=O)c(C)c32)c1,SK-MEL-239 (BRAF V600E),,,"0.05 µM, 72 h",,viability,19%
CCCCN1C[C@H](O)[C@@H](O)[C@@H](O)[C@H]1CO,sample B patient fibroblasts,"Gb3 level lowering, LC-MS/MS, item: Gb3 d18:1/18:0",,216 h,,IC50,9.9 µM
Cc1cc(N2CCc3c(c(C)nn3CC34CCC(NC(=O)[C@@H]5COCCN5)(CC3)CC4)C2)c2cnn(C)c2n1,human PBMC,"qRT-PCR, item: IFI44L mRNA",,"100 nM, with: ssRNA",,inhibition,95 ± 2%
COC(=O)Nc1nc2ccc(C(=O)c3cccs3)cc2[nH]1,BT-16,"cell viability, MTT",,"10 µM, 72 h",,inhibition,90.9%
Cc1nn(-c2nc3ccc(Cl)c(Cl)c3[nH]2)c(O)c1C1OC(=O)c2ccccc21 (centres unmarked),RAW-ISG,IFN luciferase reporter,,"1.25 µM, with: HT-DNA",,inhibition,12.9% and 18% and 12.4% and 8.72% and 11.3% and 13.6%
CCn1cc(-c2cc(Cn3ccnc3)cc3c2CCN([C@H](c2cc(OC)ccn2)C2CC2)C3=O)c(C(F)(F)F)n1,PA-1,"cell growth, inhibitor",,120 h,,EC50,0.0686 µM
CC(C)NCC(O)c1ccc(O)c(O)c1 (centres unmarked),mouse ventricular cardiomyocytes,,,"dose not given, 0.015 s",,sarcomere length,1.8 µm
Cl.Cl.NCCNS(=O)(=O)c1ccc(Cl)c2ccncc12,SK-OV-3,ATP,3D gellan gum culture,"10 µM, 4 days",baseline: untreated,relative cell number,98.8%
Nc1cccc2c1C(=O)N(C1CCC(=O)NC1=O)C2=O (centres unmarked),bone marrow CD138+ myeloma cells,XTT,,"0.6 µM, phenol red-free RPMI",,viability,104%
CC[C@H](C)C(=O)O[C@H]1CCC=C2C=C[C@H](C)[C@H](CC[C@@H]3C[C@@H](O)CC(=O)O3)[C@H]21,BT-16,"cell viability, MTT",,"10 µM, 72 h",,inhibition,94%
O=c1[nH]nc(OCCCc2ccc(Cl)cc2)c(NCc2cccnc2)c1Br,HEK-293T,"RNA-seq GSEA, item: HALLMARK_HEME_METABOLISM",,concentration not given,direction not given,normalized enrichment score,1.5
O=P1(C2CCCCC2)CCCCC1,PC-3,MTT,,72 h,baseline: IC50 HaCaT over IC50 PC-3,selectivity index,1.5
C=Cc1c2[n-]c(c1C)/C=c1\[n-]/c(c(C)c1C=C)=C\c1[n-]c(c(CCC(=O)O)c1C)/C=c1\[n-]c(c(C)c1CCC(=O)O)=C2.[Sn+4],SH-SY5Y,"RNA-seq, item: AOPEP mRNA",,"5 µM, 5 h",baseline: untreated cells,fold change,2.04
Cn1cc(-c2ccc(-c3cncc(Cl)c3N3CCC4(CCNC4=O)CC3)cc2)cn1,COLO 205,"gene expression, microarray, item: SPEF1 mRNA",,"concentration not given, 2 h",baseline: untreated cells,log2 fold change,1.12
COc1cccc2c1C(=O)c1c(O)c3c(c(O)c1C2=O)C[C@@](O)(C(=O)CO)C[C@@H]3O[C@H]1C[C@H](N)[C@@H](O)[C@H](C)O1,BT-16,"cell viability, MTT",,"10 µM, 72 h",,inhibition,89.2%

# For quick reference, copied from above:
Structure (SMILES),cell line,assay,system,setting,how to read,endpoint,value
COc1cccc2c1C(=O)c1c(O)c3c(c(O)c1C2=O)C[C@@](O)(C(=O)CO)C[C@@H]3O[C@H]1C[C@H](N)[C@@H](O)[C@H](C)O1,BT-16,"cell viability, MTT",,"10 µM, 72 h",,inhibition,89.2%
CC(=O)Nc1cccc(-n2c(=O)n(C3CC3)c(=O)c3c(Nc4ccc(I)cc4F)n(C)c(=O)c(C)c32)c1,SK-MEL-239 (BRAF V600E),,,"0.05 µM, 72 h",,viability,19%
CCN1CCN(Cc2ccc(NC(=O)c3ccc(C)c(-c4ccc5nc(NC(=O)C6CC6)cn5c4)c3)cc2C(F)(F)F)CC1,MHHCALL4 cells,"Western blot, item: JAK2, STAT5, STAT3",,concentration not given,,phosphorylation,inhibited
